Experimental data gathered from unrelated publications.
Compare with care: the assays were run in different laboratories. ± marks the error that the study gave.
Cell line: HT-29

Compound | test | setting | how to read | quantity | value
CC/C=C\C/C=C\C/C=C\C/C=C\C/C=C\C/C=C\CCC(=O)Nc1ccn(C2OC(CO)C(O)C2(F)F)c(=O)n1 (stereo not shown) | NCI60 screen | – | – | CC50 | 45.1 µM
N=C(N)NCCC[C@H](NC(=O)[C@H](Cc1c[nH]c2ccccc12)NC(=O)[C@H](CCC(N)=O)NC(=O)[C@H](Cc1c[nH]c2ccccc12)NC(=O)[C@H](CCCNC(=N)N)NC(=O)[C@H](Cc1c[nH]c2ccccc12)NC(=O)[C@H](CCC(N)=O)NC(=O)[C@H](Cc1c[nH]c2ccccc12)NC(=O)[C@H](CCCNC(=N)N)NC(=O)CCCCCNC(=O)CCCC[C@@H]1SC[C@@H]2NC(=O)N[C@@H]21)C(N)=O | cell growth or viability, MTT | – | – | IC50 | > 110 µM
O=C(O)[c-]1cccc1.O=C(Oc1ccc(-n2cccc2)cc1)[c-]1cccc1.[Fe+2] | cell growth or viability, MTT | – | – | IC50 | 121 µM
N=C(N)NCCC[C@H](NC(=O)[C@H](Cc1c[nH]c2ccccc12)NC(=O)[C@H](CCC(N)=O)NC(=O)[C@H](Cc1c[nH]c2ccccc12)NC(=O)[C@H](CCCN)NC(=O)[C@H](Cc1c[nH]c2ccccc12)NC(=O)[C@H](CCC(N)=O)NC(=O)[C@H](Cc1c[nH]c2ccccc12)NC(=O)[C@@H](N)CCCNC(=N)N)C(N)=O | cell growth or viability, MTT | – | – | IC50 | > 138 µM
COc1cc(OC)cc(C2=C3c4ccccc4C(c4ccc(NC(=S)NCCOCCOCCOCCC(=O)N[C@@H](CC(C)C)C(=O)N[C@@H](C)C(=O)N[C@@H](CCCNC(=N)N)C(=O)N[C@@H](CC(C)C)C(=O)N[C@@H](CC(C)C)C(=O)N[C@H](C(N)=O)[C@@H](C)O)cc4)=[N+]3[B-](F)(F)n3c2c2ccccc2c3-c2ccc(NC(=S)NCCNC(=O)CCCC[C@@H]3SC[C@@H]4NC(=O)N[C@@H]43)cc2)c1 | – | 200 µM, dark | – | viability | ~40%
O=C(CN1C(=O)S/C(=C\c2ccccc2)C1=O)Nc1ccc(C(=O)Nc2ccc(F)cc2)cc1 | MTT | – | baseline: IC50 Vero over IC50 HT-29 | selectivity index | 15.2
Cc1cc(O)cc(-c2nc(Nc3cc(C(F)(F)F)cc(C(F)(F)F)c3)ncc2-c2ccnc(Cl)c2)c1 | DNA flow cytometry | 10 µM, 48 h | – | cells in S phase | 22 ± 1.2%
CC1=CCC23OC2(C)CCC2C(C[N+](C)(C)C)C(=O)OC2C13.[I-] (stereo not shown) | cell growth or viability, SRB | 8.3 µM | – | inhibition | 54.9%
COc1ccccc1/C=C1\SC(=O)N(CC(=O)Nc2ccc(C(=O)Nc3ccc([N+](=O)[O-])cc3)cc2)C1=O | MTT | – | baseline: IC50 Vero over IC50 HT-29 | selectivity index | 3.79
COC(=O)C1CN1S(=O)(=O)c1ccccc1 (stereo not shown) | cell growth or viability, SRB | 72 h | – | IC50 | 30.2 µg/mL

For quick reference, copied from above:
Compound | test | setting | how to read | quantity | value
Cc1cc(O)cc(-c2nc(Nc3cc(C(F)(F)F)cc(C(F)(F)F)c3)ncc2-c2ccnc(Cl)c2)c1 | DNA flow cytometry | 10 µM, 48 h | – | cells in S phase | 22 ± 1.2%
